Published values collected from several papers.
Numbered parts are unrelated; each lists some results of a single study.

Set 1 — method: aptamer microarray, sandwich; form: DNA with 2'F-ANA; medium: in vitro; tested at: 200 nM; together with: Cy3 exosite-II aptamer, 400 nM; direction: higher = stronger binding
Target: Prothrombin, mature alpha-thrombin (F2, Homo sapiens, UniProt P00734)
Setting: whole 15-mer aptamer, many near background
`GGTTGGTGTGGTTGG (2'F-ANA at 1 2 5 6 7 8 9 10 12 14)`: “mean fluorescence intensity” 55.9 a.u.
`GGTTGGTGTGGTTGG (2'F-ANA at 3 5 13 14 15)` — result for “mean fluorescence intensity”: 56.4 a.u.
`GGTTGGTGTGGTTGG (2'F-ANA at 1 3 7 9 11 15)` — result for “mean fluorescence intensity”: 243 a.u.

Set 2 — method: protein-binding microarray; form: double-stranded DNA, one strand shown; medium: in vitro; tested at: 0.8 µM; setting: whole 60-bp probe, no competitor; direction: higher = stronger binding
Target: Centromere-binding protein 1, full length, N-terminal tag (CBF1, Saccharomyces cerevisiae, UniProt P17106, residues 1-351)
Sequence of UniProt P17106 (whole entry, looked up): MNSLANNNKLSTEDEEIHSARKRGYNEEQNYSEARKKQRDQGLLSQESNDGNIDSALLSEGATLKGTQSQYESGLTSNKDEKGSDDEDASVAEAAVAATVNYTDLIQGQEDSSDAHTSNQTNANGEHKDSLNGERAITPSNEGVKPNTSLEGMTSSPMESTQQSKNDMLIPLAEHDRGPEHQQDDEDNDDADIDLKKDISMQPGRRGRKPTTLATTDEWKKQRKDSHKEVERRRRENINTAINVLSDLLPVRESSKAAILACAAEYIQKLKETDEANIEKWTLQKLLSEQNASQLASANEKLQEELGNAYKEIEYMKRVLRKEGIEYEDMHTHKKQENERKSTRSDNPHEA
With `GAAATACTACTATTTCATCAGATTTGTGCTTTCTAGGTCTTGATTCGCTTGACGCTGCTG` the fluorescence intensity was 462 a.u.
With `GAATCCAAGAGGGATCACATCACGATACTATTGTAGGTCTTGATTCGCTTGACGCTGCTG` the fluorescence intensity was 913 a.u.
The fluorescence intensity of `CTAGAAAAAAGAAATAGACACGTGTATGTCAAGTTCGTCTTGATTCGCTTGACGCTGCTG` is reported as 4920 a.u.

Single results of other studies
PABPC1L2 full length, GST fusion: PABPC1L2, full length, GST fusion (mouse, UniProt A0ABA7IW68)
With `CACAAUU` the 7-mer Z-score was -0.00833 (PABPC1L2 full length, GST fusion; RNAcompete; RNA, in vitro; 20 nM, 7-mer, probes averaged, single round; relative to: mean of 7-mers, higher = stronger binding).
With `PhoQ, residues 284 288 289 292 302 303 TSTLRA` the fold induction was 3.06 (PhoP, residues 12 14 15 18 19 AQALL (Escherichia coli, UniProt P23836); Sort-seq, item: YFP reporter; E. coli; PhoQ-PhoP variant library, together with: 10 µM Mg2+; relative to: high Mg2+ state, higher = stronger signaling).
With `UUGAUCA` the 7-mer Z-score was -0.108 (PABPC1L2 full length, GST fusion; RNAcompete; RNA, in vitro; 20 nM, 7-mer, probes averaged, single round; relative to: mean of 7-mers, higher = stronger binding).

Repeated from above (set 1):
`GGTTGGTGTGGTTGG (2'F-ANA at 1 2 5 6 7 8 9 10 12 14)`: “mean fluorescence intensity” 55.9 a.u.
